Experimental data of several laboratories.
Each line is one published result; not all experiments were run side by side. Values after ≈ are worked out from the molar mass of the structure shown.

SMILES	organism	assay	system	setting	scale	quantity	result
CC(C)C[C@@H]1NC(=O)[C@H](CCCCN)NC(=O)[C@H](C(C)C)NC(=O)[C@@H]2CCCN2C(=O)[C@@H](Cc2ccc(O)cc2)NC(=O)[C@H](CC(C)C)NC(=O)[C@H](CCCCN)NC(=O)[C@H](C(C)C)NC(=O)[C@H](CCCCN)NC(=O)[C@H](CC(C)C)NC(=O)[C@@H]2CCCN2C(=O)[C@@H](Cc2ccc(O)cc2)NC(=O)[C@H](C(C)C)NC1=O	fungi			24 h, 2 strains		MIC geometric mean	5.7 µg/mL
CC(=O)[O-].O.O.O.O.[Ni+2].[O-]c1ccc(Br)cc1C=NCCN1CCOCC1	Aspergillus niger			20 µL of 100 µM per disc		inhibition zone diameter	28 mm
Cc1ccc(N(CCc2nnc(S)o2)S(=O)(=O)c2ccccc2)cc1	Aspergillus niger	cup plate method		100 µg/mL	relative to: fluconazole	relative inhibition	20.7%
CC(=O)N[C@H](CCCCN)C(=O)N[C@H](CC(C)C)C(=O)N[C@H](CCCCN)C(=O)N[C@H](CO)C(=O)N[C@H](CC(C)C)C(=O)N[C@H](CC(C)C)C(=O)N[C@H](CCCCN)C(=O)N[C@@H](C(=O)N[C@H](CC(C)C)C(=O)N[C@H](CO)C(=O)N[C@H](CCCCN)C(=O)N[C@H](C)C(=O)N[C@H](CCCCN)C(=O)N[C@H](CCCCN)C(=O)N[C@H](CCCCN)C(=O)N[C@H](CCCCN)C(=O)N[C@H](CC(C)C)C(=O)N[C@H](CCCCN)C(=O)N[C@@H](C(=O)N[C@H](CC(C)C)C(=O)N[C@H](CC(C)C)C(=O)N[C@H](CCCCN)C(=O)N[C@H](C)C(=O)N[C@H](CC(C)C)C(=O)N[C@H](CO)C(=O)N[C@H](CCCCN)C(N)=O)[C@H](C)O)[C@H](C)O	Acinetobacter baumannii		11 isolates			MIC geometric mean	0.4 µM
C[C@@H](c1ccn(Cc2ccccc2)n1)[C@](O)(Cn1cnnn1)c1ccc(F)cc1F	Aspergillus fumigatus	growth, broth microdilution	7544	48 h, 35 °C, ≥50% inhibition		MIC	> 64 µg/mL
CC1(C)CC[C@]2(CO)CC[C@]3(C)C(=CC[C@@H]4[C@@]5(C)CCCNC(C)(C)[C@@H]5CC[C@]43C)[C@@H]2C1	Human papillomavirus 11	viral replication, luciferase reporter	C-33 A			EC90	> 0.24 µM
CC(=O)Oc1ccc(OC(C)=O)c2c1CC1=C(C2)C(C)(C)CCC1	Leishmania infantum		intracellular amastigotes, ex vivo mouse splenic explants		relative to: HepG2 CC50 over amastigote EC50	selectivity index	30
C[C@@H](c1ccn(Cc2ccc(Cl)cc2)n1)[C@](O)(Cn1cnnn1)c1ccc(F)cc1F	Aspergillus fumigatus	growth, broth microdilution	7544	48 h, 35 °C, ≥50% inhibition		MIC	64 µg/mL (≈ 144 µM)
COc1cc(OC(C)=O)c2cc3c(cc2c1OC(C)=O)CCCC3(C)C	Leishmania infantum		promastigotes		relative to: HepG2 CC50 over promastigote EC50	selectivity index	3.3
O=c1c(O)cccc(Sc2cccc3ccccc23)c1O	human alphaherpesvirus 1	plaque reduction	Vero	1 µM		viral replication inhibition	inactive
COc1ccc(-c2nc(-c3ccccc3OC)[nH]c2-c2ccc(OC)cc2)cc1	Schistosoma mansoni		female worms	10 µM		worm killing	0%
CC(C)C[C@@H]1NC(=O)[C@H](CCCCN)NC(=O)[C@H](C(C)C)NC(=O)[C@@H]2CCCN2C(=O)[C@@H](Cc2ccc(O)cc2)NC(=O)[C@H](CC(C)C)NC(=O)[C@H](CCCCN)NC(=O)[C@H](C(C)C)NC(=O)[C@H](CCCCN)NC(=O)[C@H](CC(C)C)NC(=O)[C@H](CCCCN)NC(=O)[C@@H]2CCCN2C(=O)[C@@H](Cc2ccc(O)cc2)NC(=O)[C@H](C(C)C)NC(=O)[C@H](CCCCN)NC1=O	fungi			24 h, 2 strains		MIC geometric mean	5.7 µg/mL
CC(C)CCCc1ccc2c(c1)C(=O)C(Br)=C(Br)C2=O	Leishmania infantum		intracellular amastigotes, ex vivo mouse splenic explants		relative to: HepG2 CC50 over amastigote EC50	selectivity index	0.16
Oc1c(Br)cc(Br)c2nc3c(C(F)(F)F)cc(C(F)(F)F)cc3nc12	Staphylococcus epidermidis	Calgary biofilm device	12228			MBEC	0.15 µM
C[C@@H](c1ccn(Cc2ccc(F)c(F)c2)n1)[C@](O)(Cn1cnnn1)c1ccc(F)cc1F	Aspergillus fumigatus	growth, broth microdilution	7544	48 h, 35 °C, ≥50% inhibition		MIC	64 µg/mL (≈ 143 µM)
CCCCCCCCCC1CC2CCCC3CC(CCCCCCCCC)NC(=N1)N23 (stereo not drawn)	Aspergillus fumigatus	fungal growth	ATCC 204305			MFC	23.2 µM (≈ 10 µg/mL)
Cc1ccc(S(=O)(=O)N(CCc2nnc(S)o2)c2ccc(Cl)cc2)cc1	Aspergillus niger	cup plate method		100 µg/mL	relative to: fluconazole	relative inhibition	48.5%
Nc1ccn(C[C@@H](CO)OCP(=O)(O)OCCCS(=O)(=O)CCCCCCCCCCC2CCC2)c(=O)n1	human gammaherpesvirus 4	qPCR	Akata		relative to: CC50 over EC50	selectivity index	> 3
O=c1c(Cl)c(Cl)cnn1Cc1ccccc1Cl	Mycolicibacterium smegmatis		EcDsbB-dependent, 7H9 medium	24 h		concentration for full growth inhibition	400 nM
CCCCn1c2ccccc2c2ccnc(-c3ccc(OC)cc3)c21	Echinococcus granulosus sensu stricto		protoscoleces	200 µM, 48 h		killed protoscoleces	> 90%

SMILES	organism	assay	system	setting	scale	quantity	result
COC1=CC(c2ccc[nH]2)=NC1=CNC1CCCC1	Plasmodium yoelii		Kenya strain MRA-428, mice	oral, 100 mg/kg daily for 4 days, day 5		parasitaemia suppression	100%
C[C@@H](c1ccn(Cc2cc(F)cc(F)c2)n1)[C@](O)(Cn1cnnn1)c1ccc(F)cc1F	Aspergillus fumigatus	growth, broth microdilution	7544	48 h, 35 °C, ≥50% inhibition		MIC	16 µg/mL (≈ 35.8 µM)
Cc1ncc([N+](=O)[O-])n1CCOCc1nnc(SCC(=O)c2ccc([N+](=O)[O-])cc2)o1	Serratia marcescens		DMSO	60 µg/mL, 24 h, 37 °C		inhibition zone diameter	10 to 15 mm
CCc1c(C)[nH]c(C=NC23CC4CC(CC(C4)C2)C3)c1C	Plasmodium yoelii		Kenya strain MRA-428, mice	oral, 50 mg/kg daily for 4 days, day 5		parasitaemia suppression	67%
Cc1cc(=O)oc2c(F)c(OC3C=CC(=O)O3)c(F)cc12 (racemic)	Pisum sativum		rms1-10 mutant	applied to axillary bud, 5 µM		shoot branching inhibition	inactive
C=C(C)[C@@H]1CC[C@]2(CO)CC[C@]3(C)[C@H](CC[C@@H]4[C@@]5(C)CCCNC(C)(C)[C@@H]5CC[C@]43C)[C@@H]12	Human papillomavirus 11	viral replication, luciferase reporter	C-33 A			EC90	> 6 µM
Cc1cccc2c1N(C(=O)n1ccnn1)CC2	Arabidopsis thaliana		wild type	solo treatment		hypocotyl elongation inhibition	> 30 µM
C=C(C)[C@@H]1CC[C@]2(C(=O)NC(CO)Cc3ccccc3)CC[C@]3(C)[C@H](CC[C@@H]4[C@@]5(C)CCCNC(C)(C)[C@@H]5CC[C@]43C)[C@@H]12 (stereo partly drawn)	Human papillomavirus 11	viral replication, luciferase reporter	C-33 A			EC90	> 0.24 µM
CC(C)C[C@@H]1NC(=O)[C@H](CCCCN)NC(=O)[C@H](C(C)C)NC(=O)[C@@H]2CCCN2C(=O)[C@@H](Cc2ccc(O)cc2)NC(=O)[C@H](CC(C)C)NC(=O)[C@H](CCCCN)NC(=O)[C@H](C(C)C)NC(=O)[C@H](CCCCN)NC(=O)[C@@H]2CCCN2C(=O)[C@@H](Cc2ccc(O)cc2)NC(=O)[C@H](CCCCN)NC1=O	fungi			24 h, 2 strains		MIC geometric mean	45.2 µg/mL
CNC(CC(C)C)C(=O)NC1C(=O)NC(CC(N)=O)C(=O)NC2C(=O)NC3C(=O)NC(C(=O)NC(C(=O)NCCCNC(=N)N)c4cc(O)cc(O)c4-c4cc3ccc4O)C(O)c3ccc(c(Cl)c3)Oc3cc2cc(c3OC2OC(CO)C(O)C(O)C2OC2CC(C)(NCc3ccc(-c4ccc(Cl)cc4)cc3)C(O)C(C)O2)Oc2ccc(cc2Cl)C1O (stereo not drawn)	Enterococcus faecalis and Enterococcus faecium		VanA BM4166 and ATCC BAA-2317	with: lipoteichoic acid 100 µg/mL	relative to: without lipoteichoic acid	MIC fold increase	8 fold
C[C@@H](c1ccn(Cc2ccc(OC(F)(F)F)cc2)n1)[C@](O)(Cn1cnnn1)c1ccc(F)cc1F	Aspergillus fumigatus	growth, broth microdilution	7544	48 h, 35 °C, ≥50% inhibition		MIC	> 64 µg/mL
COC1=CC(c2ccc[nH]2)=NC1=Cc1[nH]c(Cc2ccc(Cl)cc2)cc1Cc1ccc(Cl)cc1	Plasmodium yoelii		Kenya strain MRA-428, mice	oral, 5 mg/kg daily for 4 days, day 5		parasitaemia suppression	90%
CC(=O)Oc1ccc(OC(C)=O)c2cc3c(cc12)CCCC3(C)C	Leishmania infantum		intracellular amastigotes, ex vivo mouse splenic explants		relative to: HepG2 CC50 over amastigote EC50	selectivity index	2.3
CNCCCn1c2ccc([N+](=O)[O-])cc2c(=O)n1Cc1ccccc1	Leishmania amazonensis	parasite growth, resazurin		72 h, promastigote		IC50	2.3 µM
CCCCCCN=Cc1[nH]c(-c2ccc[nH]2)cc1OC	Plasmodium yoelii		Kenya strain MRA-428, mice	oral, 100 mg/kg daily for 4 days, day 5		parasitaemia suppression	100%
COc1ccc(-n2c(=O)c(C(=O)C3C(=O)CCCC3=O)nc3ccccc32)cc1	Schoenoplectus juncoides	herbicidal activity, paddy pot test, visual rating		28 days		ED90	6.3 g a.i./10 a
Fc1ccc2c(c1)c1nc3ccc(Br)cc3c-1cn2Cc1cn(-c2ccccc2I)nn1	Giardia duodenalis trophozoites	UHPLC-Q-TOF-MS, measured: LysoPE(0:0/18:0)		IC50, 0.1742 h	relative to: 0.25% DMSO	fold change	3.22
COC1=CC(c2ccc[nH]2)=NC1=CNC1CCCCCCC1	Plasmodium yoelii		Kenya strain MRA-428, mice	oral, 100 mg/kg daily for 4 days, day 5		parasitaemia suppression	100%
COc1ccc(C(=O)CSc2nnc(COCCn3c([N+](=O)[O-])cnc3C)o2)cc1F	Serratia marcescens		DMSO	60 µg/mL, 24 h, 37 °C		inhibition zone diameter	≥ 20 mm

For quick reference, copied from above:
SMILES	organism	assay	system	setting	scale	quantity	result
O=c1c(Cl)c(Cl)cnn1Cc1ccccc1Cl	Mycolicibacterium smegmatis		EcDsbB-dependent, 7H9 medium	24 h		concentration for full growth inhibition	400 nM
O=c1c(O)cccc(Sc2cccc3ccccc23)c1O	human alphaherpesvirus 1	plaque reduction	Vero	1 µM		viral replication inhibition	inactive
